Measured values from different studies.
Parts stem from different laboratories: compare values within a part only. Changes are numbered by the printed parent chain.

Sample 1
Target: ABI1, truncated, D143A, DHFR fusion (Arabidopsis thaliana)
Method: DHFR PCA, deep sequencing
Sample: yeast
Setting: methotrexate growth selection, single substitutions
Added: (+)-ABA 0.032 µM
Baseline: wild-type fitted maximum
Reading: higher = stronger binding
Starting sequence: PYL1, truncated, DHFR fusion (Arabidopsis thaliana); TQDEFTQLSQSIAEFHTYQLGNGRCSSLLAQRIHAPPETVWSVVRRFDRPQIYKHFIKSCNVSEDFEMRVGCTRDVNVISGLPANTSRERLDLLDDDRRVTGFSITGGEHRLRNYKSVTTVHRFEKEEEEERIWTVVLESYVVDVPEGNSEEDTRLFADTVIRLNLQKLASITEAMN; partner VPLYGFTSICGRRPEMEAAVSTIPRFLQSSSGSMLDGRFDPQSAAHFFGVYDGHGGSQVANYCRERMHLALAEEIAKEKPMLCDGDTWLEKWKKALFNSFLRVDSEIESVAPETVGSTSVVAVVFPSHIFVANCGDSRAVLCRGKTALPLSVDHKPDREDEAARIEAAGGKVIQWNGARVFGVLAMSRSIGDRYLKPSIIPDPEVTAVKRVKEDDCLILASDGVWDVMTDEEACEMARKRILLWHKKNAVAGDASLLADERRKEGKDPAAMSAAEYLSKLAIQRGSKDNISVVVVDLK
| Substitution | relative binding score |
| --- | --- |
| V70F | 1.92% |
| R45N | -6.57% |
| V70D | 3.91% |
| G81I | 3.24% |
| S9Q | 54.6% |
| S11Y | 15.9% |
| N165P | 5.28% |

Sample 2
Target: MAFG, bZIP domain (human)
Method: DHFR protein complementation
Sample: yeast
Setting: single substitutions, most at no-binding floor
Baseline: wild-type JUN-FOS pair
Reading: higher = stronger binding
Starting sequence: JUN, bZIP domain (human); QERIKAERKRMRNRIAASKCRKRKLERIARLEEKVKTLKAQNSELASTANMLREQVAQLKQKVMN; partner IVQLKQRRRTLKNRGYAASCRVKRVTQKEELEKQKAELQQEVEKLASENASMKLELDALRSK
| Substitution | binding fitness [natural log] |
| --- | --- |
| V35L | -1.3 |
| N42W | -1.44 |
| I28E | -1.56 |
| M51S | -1.22 |
| S47R | -1.39 |

Sample 3
Target: Histone acetyltransferase KAT6A, winged helix 2, GST fusion (KAT6A, Homo sapiens, UniProt Q92794, residues 85-181)
Method: protein binding microarray
Molecule type: double-stranded DNA, one strand shown
Sample: in vitro
Tested at: not given
Setting: 8-mer, flanks averaged, mean of 2 arrays, mostly near background
Baseline: not given
Reading: higher = stronger binding
Residues (chain): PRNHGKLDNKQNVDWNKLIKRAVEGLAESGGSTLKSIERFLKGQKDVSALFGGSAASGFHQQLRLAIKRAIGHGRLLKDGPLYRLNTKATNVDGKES
| Sequence | E-score |
| --- | --- |
| CCTCGTAC | -0.199 |
| CGGCCAAG | 0.215 |
| AAGGTCCT | -0.0178 |
| CCTTAGTA | -0.153 |
| CTCATACA | -0.18 |
| CACTAACC | -0.0202 |

Further values, each from its own experiment
| Molecule | target | assay | system | conditions | scale | endpoint | value |
| --- | --- | --- | --- | --- | --- | --- | --- |
| PhoQ, residues 284 288 289 292 302 303 SSTLLI | PhoP, residues 12 14 15 18 19 LHTVM (Escherichia coli, UniProt P23836) | Sort-seq, measured: YFP reporter | E. coli | PhoQ-PhoP variant library, added: 10 µM Mg2+ | baseline: high Mg2+ state, higher = stronger signaling | fold induction | 12.8 |

A few entries again (sample 3):
| Sequence | E-score |
| --- | --- |
| CGGCCAAG | 0.215 |
| AAGGTCCT | -0.0178 |
